Assay results collected from several papers.
Each numbered part is a random draw from the data of one study; scales do not carry over between parts. Values joined by “and” are separate records of one study, mostly repeats; a detail may differ.
Chain of UniProt Q8NE63 (whole entry, looked up): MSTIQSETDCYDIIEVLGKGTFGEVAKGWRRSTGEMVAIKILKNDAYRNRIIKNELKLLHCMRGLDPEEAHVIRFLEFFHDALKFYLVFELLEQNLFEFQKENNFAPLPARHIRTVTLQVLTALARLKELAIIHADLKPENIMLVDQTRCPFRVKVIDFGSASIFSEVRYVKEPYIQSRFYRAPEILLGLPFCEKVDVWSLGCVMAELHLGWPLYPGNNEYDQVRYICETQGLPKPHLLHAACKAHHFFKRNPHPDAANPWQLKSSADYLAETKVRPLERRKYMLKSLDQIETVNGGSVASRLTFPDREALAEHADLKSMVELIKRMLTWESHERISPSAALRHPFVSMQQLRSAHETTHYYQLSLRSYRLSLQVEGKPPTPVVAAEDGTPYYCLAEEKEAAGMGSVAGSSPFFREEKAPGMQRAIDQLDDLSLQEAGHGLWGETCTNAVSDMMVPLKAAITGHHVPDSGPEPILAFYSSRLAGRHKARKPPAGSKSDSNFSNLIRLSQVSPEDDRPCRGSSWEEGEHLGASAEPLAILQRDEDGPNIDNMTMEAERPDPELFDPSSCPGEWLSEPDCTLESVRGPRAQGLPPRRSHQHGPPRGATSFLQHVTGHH
Chain of UniProt Q9UK32 (whole entry, looked up): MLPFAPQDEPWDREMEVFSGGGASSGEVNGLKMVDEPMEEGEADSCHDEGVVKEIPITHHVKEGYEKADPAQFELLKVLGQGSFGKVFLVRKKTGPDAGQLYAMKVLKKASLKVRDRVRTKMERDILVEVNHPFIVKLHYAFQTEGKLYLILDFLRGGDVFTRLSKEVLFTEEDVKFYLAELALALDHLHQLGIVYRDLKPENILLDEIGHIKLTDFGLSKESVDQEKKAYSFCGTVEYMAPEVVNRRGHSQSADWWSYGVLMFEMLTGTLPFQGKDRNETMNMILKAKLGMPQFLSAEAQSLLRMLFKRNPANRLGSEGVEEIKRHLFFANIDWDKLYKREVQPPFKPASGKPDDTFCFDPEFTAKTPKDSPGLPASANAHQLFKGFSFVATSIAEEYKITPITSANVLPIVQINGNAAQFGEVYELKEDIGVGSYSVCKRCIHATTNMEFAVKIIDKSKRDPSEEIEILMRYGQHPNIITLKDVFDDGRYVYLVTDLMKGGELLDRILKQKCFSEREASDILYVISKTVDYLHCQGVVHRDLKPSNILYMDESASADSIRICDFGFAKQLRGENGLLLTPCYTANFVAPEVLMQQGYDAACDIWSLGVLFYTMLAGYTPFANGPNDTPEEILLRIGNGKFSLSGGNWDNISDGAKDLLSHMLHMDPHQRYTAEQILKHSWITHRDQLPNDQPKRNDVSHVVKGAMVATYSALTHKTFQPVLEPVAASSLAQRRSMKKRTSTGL
Chain of UniProt P54764 (whole entry, looked up): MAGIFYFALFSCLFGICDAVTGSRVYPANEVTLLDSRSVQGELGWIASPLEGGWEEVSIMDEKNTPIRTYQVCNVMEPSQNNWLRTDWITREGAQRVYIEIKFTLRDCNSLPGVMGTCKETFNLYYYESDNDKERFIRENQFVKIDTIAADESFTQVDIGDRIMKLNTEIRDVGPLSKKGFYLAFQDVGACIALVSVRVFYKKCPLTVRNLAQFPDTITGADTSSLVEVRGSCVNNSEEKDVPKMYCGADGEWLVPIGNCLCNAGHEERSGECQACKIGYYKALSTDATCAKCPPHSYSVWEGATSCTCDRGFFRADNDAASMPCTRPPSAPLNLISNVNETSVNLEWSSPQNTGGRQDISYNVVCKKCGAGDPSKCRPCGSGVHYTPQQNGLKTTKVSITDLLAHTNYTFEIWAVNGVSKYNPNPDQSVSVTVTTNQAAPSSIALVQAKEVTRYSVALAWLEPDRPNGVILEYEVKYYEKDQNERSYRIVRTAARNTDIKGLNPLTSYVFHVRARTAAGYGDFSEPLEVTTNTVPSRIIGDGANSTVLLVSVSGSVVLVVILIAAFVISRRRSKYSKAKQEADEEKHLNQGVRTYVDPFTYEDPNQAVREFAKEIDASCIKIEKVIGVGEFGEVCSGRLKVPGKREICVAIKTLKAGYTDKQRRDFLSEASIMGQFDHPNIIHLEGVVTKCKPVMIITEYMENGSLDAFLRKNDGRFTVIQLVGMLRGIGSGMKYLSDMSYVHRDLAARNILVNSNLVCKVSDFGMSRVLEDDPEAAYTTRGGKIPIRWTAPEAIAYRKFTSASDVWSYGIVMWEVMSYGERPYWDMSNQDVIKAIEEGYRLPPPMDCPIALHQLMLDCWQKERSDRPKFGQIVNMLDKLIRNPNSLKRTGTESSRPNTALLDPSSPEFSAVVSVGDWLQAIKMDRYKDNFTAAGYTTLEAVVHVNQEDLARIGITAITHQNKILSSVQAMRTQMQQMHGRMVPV
Chain of UniProt P11802 (whole entry, looked up): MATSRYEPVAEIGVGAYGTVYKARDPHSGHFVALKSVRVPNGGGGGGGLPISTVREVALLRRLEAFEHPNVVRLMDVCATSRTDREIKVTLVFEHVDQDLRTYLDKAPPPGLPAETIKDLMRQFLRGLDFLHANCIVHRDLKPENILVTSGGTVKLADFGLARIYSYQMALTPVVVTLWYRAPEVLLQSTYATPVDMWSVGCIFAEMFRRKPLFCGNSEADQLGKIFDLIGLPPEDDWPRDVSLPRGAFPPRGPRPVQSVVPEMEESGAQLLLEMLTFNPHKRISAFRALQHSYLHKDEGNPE
Chain of UniProt Q16644 (whole entry, looked up): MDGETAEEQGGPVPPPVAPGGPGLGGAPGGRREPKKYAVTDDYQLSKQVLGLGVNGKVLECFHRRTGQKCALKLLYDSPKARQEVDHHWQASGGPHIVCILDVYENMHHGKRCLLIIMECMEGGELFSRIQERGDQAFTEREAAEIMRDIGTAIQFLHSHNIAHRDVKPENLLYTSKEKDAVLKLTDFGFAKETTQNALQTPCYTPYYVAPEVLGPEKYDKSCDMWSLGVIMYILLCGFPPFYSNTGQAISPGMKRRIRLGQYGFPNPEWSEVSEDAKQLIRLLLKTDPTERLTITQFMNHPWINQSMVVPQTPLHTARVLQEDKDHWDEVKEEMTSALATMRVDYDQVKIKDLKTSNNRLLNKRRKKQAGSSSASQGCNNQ
Chain of UniProt O75716 (whole entry, looked up): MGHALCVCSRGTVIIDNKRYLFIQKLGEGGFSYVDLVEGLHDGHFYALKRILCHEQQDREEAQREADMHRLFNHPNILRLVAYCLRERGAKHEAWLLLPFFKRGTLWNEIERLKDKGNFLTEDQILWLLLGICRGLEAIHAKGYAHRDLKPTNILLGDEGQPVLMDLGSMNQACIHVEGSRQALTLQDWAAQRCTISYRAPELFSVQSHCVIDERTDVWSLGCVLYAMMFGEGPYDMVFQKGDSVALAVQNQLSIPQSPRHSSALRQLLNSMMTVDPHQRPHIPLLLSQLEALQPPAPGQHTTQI
Chain of UniProt Q13554 (whole entry, looked up): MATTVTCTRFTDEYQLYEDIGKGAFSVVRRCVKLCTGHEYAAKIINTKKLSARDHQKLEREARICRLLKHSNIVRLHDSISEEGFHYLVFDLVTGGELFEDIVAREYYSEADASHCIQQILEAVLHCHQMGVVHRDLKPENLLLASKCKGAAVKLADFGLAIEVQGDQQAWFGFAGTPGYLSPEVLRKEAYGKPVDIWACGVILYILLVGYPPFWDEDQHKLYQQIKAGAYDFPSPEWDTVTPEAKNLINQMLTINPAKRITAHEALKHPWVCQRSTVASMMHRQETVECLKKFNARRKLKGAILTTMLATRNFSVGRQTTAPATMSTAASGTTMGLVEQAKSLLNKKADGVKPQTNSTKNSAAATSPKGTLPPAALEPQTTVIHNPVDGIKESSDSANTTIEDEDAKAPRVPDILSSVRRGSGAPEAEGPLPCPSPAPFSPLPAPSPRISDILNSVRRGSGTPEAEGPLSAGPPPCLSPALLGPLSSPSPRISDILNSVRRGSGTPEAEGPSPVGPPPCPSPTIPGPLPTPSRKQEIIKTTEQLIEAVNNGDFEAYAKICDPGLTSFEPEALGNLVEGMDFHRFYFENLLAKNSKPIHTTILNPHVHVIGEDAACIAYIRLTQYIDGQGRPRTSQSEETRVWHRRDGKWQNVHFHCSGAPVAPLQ
Chain of UniProt Q9UEE5 (whole entry, looked up): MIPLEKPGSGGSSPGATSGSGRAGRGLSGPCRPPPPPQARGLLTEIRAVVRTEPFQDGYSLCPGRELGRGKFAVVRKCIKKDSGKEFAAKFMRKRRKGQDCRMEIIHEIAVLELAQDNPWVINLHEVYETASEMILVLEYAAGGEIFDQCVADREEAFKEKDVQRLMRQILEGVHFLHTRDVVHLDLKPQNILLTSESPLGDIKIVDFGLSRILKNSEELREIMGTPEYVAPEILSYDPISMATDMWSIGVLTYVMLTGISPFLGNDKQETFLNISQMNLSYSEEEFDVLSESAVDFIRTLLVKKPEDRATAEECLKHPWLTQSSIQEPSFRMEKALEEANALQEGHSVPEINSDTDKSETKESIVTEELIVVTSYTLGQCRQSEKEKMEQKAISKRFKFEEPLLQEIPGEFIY

Set 1
Organism: Sarcocystis neurona
Effect on: parasite growth
Tested at: 10 µM
Notes: secondary screen
With `Oc1c(Cl)cc(Cl)c2cccnc12` the inhibition was 95.9%.
For `COCc1c(C(C)C)nc(C(C)C)c(/C=C/[C@@H](O)C[C@@H](O)CC(=O)O)c1-c1ccc(F)cc1`, the inhibition was 31.2%.
For `OCCN(CCO)c1nc(N2CCCCC2)c2nc(N(CCO)CCO)nc(N3CCCCC3)c2n1`, the inhibition was -51.3%.
With `CC1=C(CC(=O)O)c2cc(F)ccc2/C1=C\c1ccc([S+](C)[O-])cc1` (centres unmarked) the inhibition was -39.8%.
The inhibition of `OCCN1CCN(CCCN2c3ccccc3Sc3ccc(C(F)(F)F)cc32)CC1` is reported as 84.6%.
The inhibition of `CN1CCN(C2=Nc3cc(Cl)ccc3Nc3ccccc32)CC1` is reported as -48.5%.
`COc1ccc(-c2cc(=O)c3c(OC)c(OC)c(OC)c(OC)c3o2)cc1OC` gave an inhibition of 1.7%.
For `CC(C)[N+](C)(CCOC(=O)C1c2ccccc2Oc2ccccc21)C(C)C.[Br-]`, the inhibition was -40.7%.
`c1ccc(CC2=NCCN2)cc1` gave an inhibition of -26.2%.
`CN1CCN(C2=Nc3ccccc3Oc3ccc(Cl)cc32)CC1` gave an inhibition of -41.2%.
The inhibition of `CCOC(=O)OC(C)OC1=C(C(=O)Nc2ccccn2)N(C)S(=O)(=O)c2ccccc21` (centres unmarked) is reported as -33.2%.

Set 2
Compound: N#C/C(=C\c1ccc(O)c(O)c1)C(=O)NCc1ccccc1
Effect on: enzyme activity
Mode: inhibitor
Tested at: 0.5 µM
Baseline: control
HIPK4 (Homo sapiens, UniProt Q8NE63) — remaining activity: 106%.
For Cyclin-dependent kinase 4, with cyclin D3 (CDK4, Homo sapiens, UniProt P11802): remaining activity read 98%.
It gave 99.1% for remaining activity (STK16 (Homo sapiens, UniProt O75716)).
It gave 90.7% for remaining activity (PRKACG (Homo sapiens, UniProt P22612)).
TSSK2 (Homo sapiens, UniProt Q96PF2) — remaining activity: 90%.
EPHB4 (Homo sapiens, UniProt P54760) — remaining activity: 88.2%.
For DYRK3 (Homo sapiens, UniProt O43781): remaining activity read 99.6%.
For CAMK2B (Homo sapiens, UniProt Q13554): remaining activity read 102%.
Cyclin-dependent kinase 1, with cyclin B (CDK1, Homo sapiens, UniProt P06493) — remaining activity: 96.9%.
It gave 102% for remaining activity (MAPKAPK3 (Homo sapiens, UniProt Q16644)).
The remaining activity was 74% (PDPK1 (Homo sapiens, UniProt O15530)).
It gave 104% for remaining activity (Cyclin-dependent kinase 6, with cyclin D3 (CDK6, Homo sapiens, UniProt Q00534)).
The remaining activity was 98.8% (STK17A (Homo sapiens, UniProt Q9UEE5)).
For RPS6KA6 (Homo sapiens, UniProt Q9UK32): remaining activity read 108%.
It gave 95.6% for remaining activity (BLK (Homo sapiens, UniProt P51451)).
The remaining activity was 102% (RPS6KA5 (Homo sapiens, UniProt O75582)).
The remaining activity was 99.5% (EPHA4 (Homo sapiens, UniProt P54764)).
AXL (Homo sapiens, UniProt P30530) — remaining activity: 95.1%.
WNK3 (Homo sapiens, UniProt Q9BYP7) — remaining activity: 95%.
EPHB1 (Homo sapiens, UniProt P54762) — remaining activity: 87.4%.
It gave 92.6% for remaining activity (PHKG1 (Homo sapiens, UniProt Q16816)).

Set 3
Target: Beta-2 adrenergic receptor (ADRB2, Homo sapiens, UniProt P07550)
Chain of UniProt P07550 (whole entry, looked up): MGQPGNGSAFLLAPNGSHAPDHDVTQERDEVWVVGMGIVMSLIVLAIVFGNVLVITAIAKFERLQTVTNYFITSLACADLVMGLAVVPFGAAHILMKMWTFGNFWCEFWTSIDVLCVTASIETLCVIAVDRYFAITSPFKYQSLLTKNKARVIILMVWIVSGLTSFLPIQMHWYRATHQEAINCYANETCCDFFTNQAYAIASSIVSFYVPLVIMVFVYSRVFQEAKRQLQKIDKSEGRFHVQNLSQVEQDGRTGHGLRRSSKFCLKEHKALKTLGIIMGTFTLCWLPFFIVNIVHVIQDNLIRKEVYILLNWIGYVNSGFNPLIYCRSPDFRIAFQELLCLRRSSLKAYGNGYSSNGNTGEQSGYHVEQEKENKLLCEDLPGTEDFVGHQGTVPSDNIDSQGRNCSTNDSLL
Effect on: binding
Technique: radioligand binding
Tested at: 10 µM
For `COCc1nc2cnc3cc(-c4c(C)noc4C)c(OC[C@H]4CCNC4)cc3c2n1[C@H](C)c1ccccc1`, the inhibition was 18.4%.
`C[C@@]1(Cc2ccc(C#N)cc2)C(=O)N(c2cc(Cl)cc(Cl)c2)c2ncc(C(=O)NC3(c4nc(C5CCC5)no4)CC3)n21` gave an inhibition of -7.08%.
For `O=C(Nc1cccnn1)N1CCC(=Cc2cccc(Oc3ccc(C(F)(F)F)cn3)c2)CC1`, the inhibition was 0.51%.
For `O=C1c2ccc(Nc3ccc(F)cc3F)cc2CCc2ccc(OC[C@H](O)CO)cc21`, the inhibition was 2.93%.
For `CS(=O)(=O)NCC[C@H](NC(=O)c1cncc2c1cnn2-c1ccc(F)cc1)c1ccnc(S(C)(=O)=O)c1`, the inhibition was -5.93%.
For `CN1C(=O)[C@@H](N2CCc3cn(Cc4ccccc4)nc3C2=O)COc2ccccc21`, the inhibition was 9.59%.
With `CC1=C(C#N)C(c2ccc3c(c2)c(NC(=O)c2ccccc2C)nn3C)C(C#N)=C(C)N1` the inhibition was -7.25%.
The inhibition of `O=C([C@H]1C[C@H](O)CN1c1ccc(Cl)cc1)N1CC2COCC(C1)N2Cc1ccc(Cl)cc1` is reported as -7.55%.
The inhibition of `Cc1c(NC(=O)c2cc(C(N)=O)nc3cc(F)ccc23)c(C(F)(F)F)nn1Cc1ccc(C(C)(C)C)cc1` is reported as 24.1%.
The inhibition of `CN(C)C(=O)Cn1cc(-c2nc([C@@](C)(c3ccc(-c4cnc(N)nc4)cc3)C3CC3)no2)cn1` is reported as 0.497%.
`Cc1nc(Cc2cccc(C(F)(F)F)c2)sc1-c1ccc(C(N)=O)nc1` gave an inhibition of 2.07%.

Set 4
SMILES: C[C@@H]1CN(c2ccc(-c3cc(C(=O)NCCOCCOCCOCCOCCNC(=O)/C=C/c4[nH]cc(C(=O)N[C@@H](CC(N)=O)c5ccc(F)c(Cl)c5)c4-c4ccc(Cl)cc4F)ccc3F)cc2NC(=O)c2c[nH]c(=O)cc2C(F)(F)F)C[C@H](C)N1C
Technique: ATPlite
It gave 117% and 98.1% and 95.3% for viability (MV4-11 expressing HiBiT-WDR5; RPMI with 10% FBS; 34.2 nM, 24 h).
The viability was 120% and 119% and 124% (MV4-11 expressing HiBiT-WDR5; RPMI with 10% FBS; 227 nM, 24 h).
The viability was 109% and 116% and 102% (MV4-11 expressing HiBiT-WDR5; RPMI with 10% FBS; 585 nM, 24 h).
MV4-11; 0.1 µM, 5 days; baseline: DMSO — viability: 76.6% and 71.6% and 96.6% and 83.4%.
For MV4-11; 0.0464 µM, 5 days; baseline: DMSO: viability read 97.1% and 75.1% and 81.8%.
It gave 110% and 106% and 84% for viability (MV4-11 expressing HiBiT-WDR5; RPMI with 10% FBS; 10000 nM, 24 h).
MV4-11 expressing HiBiT-WDR5; RPMI with 10% FBS; 5.15 nM, 24 h — viability: 100% and 97.2% and 81.2%.

For quick reference, copied from above (set 1):
`c1ccc(CC2=NCCN2)cc1` gave an inhibition of -26.2%.
With `Oc1c(Cl)cc(Cl)c2cccnc12` the inhibition was 95.9%.
The inhibition of `CN1CCN(C2=Nc3cc(Cl)ccc3Nc3ccccc32)CC1` is reported as -48.5%.
For `CC(C)[N+](C)(CCOC(=O)C1c2ccccc2Oc2ccccc21)C(C)C.[Br-]`, the inhibition was -40.7%.
For `OCCN(CCO)c1nc(N2CCCCC2)c2nc(N(CCO)CCO)nc(N3CCCCC3)c2n1`, the inhibition was -51.3%.
For `COCc1c(C(C)C)nc(C(C)C)c(/C=C/[C@@H](O)C[C@@H](O)CC(=O)O)c1-c1ccc(F)cc1`, the inhibition was 31.2%.
With `CC1=C(CC(=O)O)c2cc(F)ccc2/C1=C\c1ccc([S+](C)[O-])cc1` (centres unmarked) the inhibition was -39.8%.
The inhibition of `CCOC(=O)OC(C)OC1=C(C(=O)Nc2ccccn2)N(C)S(=O)(=O)c2ccccc21` (centres unmarked) is reported as -33.2%.
